Measured values collected from several papers.
Compare with care: the assays were run in different laboratories.
Technique: steady-state kinetics
B1: enzyme (Streptomyces venezuelae, UniProt Q9ZGI2); chain SGADTGAGAGMFRALFRQAVEDDRYGEFLDVLAEASAFRPQFASPEACSERLDPVLLAGGPTDRAEGRAVLVGCTGTAANGGPHEFLRLSTSFQEERDFLAVPLPGYGTGTGTGTALLPADLDTALDAQARAILRAAGDAPVVLLGHSGGALLAHELAFRLERAHGAPPAGIVLVDPYPPGHQEPIEVWSRQLGEGLFAGELEPMSDARLLAMGRYARFLAGPRPGRSSAPVLLVRASEPLGDWQEERGDWRAHWDLPHTVADVPGDHFTMMRDHAPAVAEAVLSWLDAIEGIEGAGK
B2: FNO G29S (Thermobifida fusca, UniProt Q47RA9); chain MIMIMASKSSPHDLPDVSGLSIAVLGGTSDQGRGLARRFAMAGHEVILGSRSAERAQAVAAELGEGLPVRGMDNAGAAEAGDVVIVAVPWDGHRALLESLKDVLAGKIVVDCVNPLGFDKRGAYALPVEEGSAAEQAAAILPDSRVVAAFHHVSAVLLLDPEVEKVDLDVLVLGDDREATDVVRALAARIPGVRGVYGGRLRNAHQVEAFTANLISINRRYKAHAGIRITDI
B3: enzyme (UniProt Q53796); chain MTEHPRAHTAHLRTARLELTPLDPAADARHLHHAYGDEEVMRWWTRPACADPAETERYLTSCAAAPGARLWTIRAPDGTVPGMAGLLGGTDVPGLTWLLRRDSWGHGYATEAAAAVVGHALEDGGLDRVEAWIEAGNRRSLAVAARVGLTERARLAQHYPHRPGPHEMVVLGKARAEEPLTTLAVITELPVRDVAATLRLVEAALGARTAFAIGDPPEFAEAALTPWSAGPRFRLAAVPGPGPVEPVRLHLDAAGTADSLHRRAVDAGARVDGPPVRRPWGRSEFVITLPEGHELTVSAPV
B4: protein (Thermotoga neapolitana, UniProt B9K712); chain MKMLYDLAKKRKTVRRFKKEKPPLEDLIYSLKVANEAPSGMNAQPWRFLIVEDEKLKGQIRRVCERSEKTFYENVRGRLKEWLDEKRFTWRKPFLKEAPYLLLVFSEKSAPYSRESVWLAVGYLLLALEEKGLGSVPYTPPDFREVEKLVNTPSELRLEVILPVGYPDDPKPKYPRNEVIVRYNTF
B5: PPIP5K2 (Homo sapiens, UniProt O43314); chain MSEAPRFFVGPEDTEINPGNYRHFFHHADEDDEEEDDSPPERQIVVGICSMAKKSKSKPMKEILERISLFKYITVVVFEEEVILNEPVENWPLCDCLISFHSKGFPLDKAVAYAKLRNPFVINDLNMQYLIQDRREVYSILQAEGILLPRYAILNRDPNNPKECNLIEGEDHVEVNGEVFQKPFVEKPVSAEDHNVYIYYPTSAGGGSQRLFRKIGSRSSVYSPESNVRKTGSYIYEEFMPTDGTDVKVYTVGPDYAHAEARKSPALDGKVERDSEGKEVRYPVILNAREKLIAWKVCLAFKQTVCGFDLLRANGQSYVCDVNGFSFVKNSMKYYDDCAKILGNIVMRELAPQFHIPWSIPLEAED
B6: SULT1E1 (Homo sapiens, UniProt P49888); chain MNSELDYYEKFEEVHGILMYKDFVKYWDNVEAFQARPDDLVIATYPKSGTTWVSEIVYMIYKEGDVEKCKEDVIFNRIPFLECRKENLMNGVKQLDEMNSPRIVKTHLPPELLPASFWEKDCKIIYLCRNAKDVAVSFYYFFLMVAGHPNPGSFPEFVEKFMQGQVPYGSWYKHVKSWWEKGKSPRVLFLFYEDLKEDIRKEVIKLIHFLERKPSEELVDRIIHHTSFQEMKNNPSTNYTTLPDEIMNQKLSPFMRKGITGDWKNHFTVALNEKFDKHYEQQMKESTLKFRTEI
B7: genB3 A452T/L401C/Q310N (Micromonospora echinospora, UniProt Q2MG50); chain MDSANLTNRGLVERARRVTAAENYDIGTRFSAMIQSGEGAWLTDVEGNRYVDLTASSGTIILGHRNQAVTEAITRQIRDFGTAFASTLSVPRVELAERLCERYECAEKVVFHKTGSEGTAMAARLARAATGRELILSCGYHGWHEWQLAGETFGYQQTTGVVGFGYNEKALAKMLEAFGNEVAGVLISPELLYFDVEFYQRMYALCARYDVPFMMDEVYTGFRAGPKGVHGLGVPADVVVVSKGLANGHSLAAVMGRRDIIDAYDVSGINGTYTREVPPMAAAMAVLDVLDTPGVYEHAEAMGRRLADGMREILTGEGIPNWVGGPALMFDTVLPNDDLGWEIYKTAHDFGVYFEDSGTQCVTTAFDEAAVDHALTAFRKATRQVIADRPDIAPTSGGELTEERKLDFAEETFGGLLRDDERTNALIDETIEKVVNRDRSIKPVLIPAQN
B8: AK1 (Homo sapiens, UniProt P00568); chain MEEKLKKTKIIFVVGGPGSGKGTQCEKIVQKYGYTHLSTGDLLRSEVSSGSARGKKLSEIMEKGQLVPLETVLDMLRDAMVAKVNTSKGFLIDGYPREVQQGEEFERRIGQPTLLLYVDAGPETMTQRLLKRGETSGRVDDNEETIKKRLETYYKATEPVIAFYEKRGIVRKVNAEGSVDSVFSQVCTHLDALK

Molecule	substrate	pH	temperature	setting	together with	Km
B1 (enzyme)	CC[C@H](O)[C@H](C)/C=C/C(=O)[C@H](C)C[C@H](C)[C@H](OC)[C@@H](C)C(=O)SCCNC(C)=O	–	–	–	–	1040 µM
enzyme (Actinoalloteichus caeruleus, UniProt M1F4W9)	CC(C)C[C@H](NC(=O)c1cc(O)cc(-c2ccccn2)n1)C(=O)O	pH 8	30 °C	–	–	1510 µM
B2 (FNO G29S)	NC(=O)C[n+]1cccc(C(N)=O)c1	pH 8	25 °C	–	F420H2 40 µM	18000 µM
B3 (enzyme)	Cc1c(N)nc([C@H](CC(N)=O)NC[C@H](N)C(N)=O)nc1C(=O)N[C@H](C(=O)N[C@H](C)[C@@H](O)[C@H](C)C(=O)N[C@H](C(=O)NCCc1nc(-c2nc(C(=O)NCCCCNC(=N)N)cs2)cs1)[C@@H](C)O)[C@@H](O[C@@H]1O[C@@H](CO)[C@@H](O)[C@H](O)[C@@H]1O[C@H]1O[C@H](CO)[C@@H](O)[C@H](OC(N)=O)[C@@H]1O)c1c[nH]cn1	pH 7.5	30 °C	–	–	15 µM
B4 (protein)	N[C@@H](Cc1ccc(O)c(Br)c1)C(=O)O	pH 7.4	60 °C	–	–	0.14 µM
B5 (PPIP5K2)	O=P(O)(O)O[C@@H]1[C@@H](OP(=O)(O)O)[C@@H](OP(=O)(O)O)[C@@H](OP(=O)(O)OP(=O)(O)O)[C@H](OP(=O)(O)O)[C@H]1OP(=O)(O)O	–	–	–	–	0.11 µM
B6 (SULT1E1)	O=C(O[C@@H]1Cc2c(O)cc(O)cc2O[C@@H]1c1cc(O)c(O)c(O)c1)c1cc(O)c(O)c(O)c1	pH 7.4	–	not purified	–	3.25 µM
enzyme (Astragalus mongholicus, UniProt A0A977WMR2)	CC(C)(O)[C@H]1CC[C@@](C)([C@H]2[C@@H](O)C[C@@]3(C)[C@@H]4C[C@H](O)[C@H]5C(C)(C)[C@@H](O)CC[C@@]56C[C@@]46CC[C@]23C)O1	–	–	–	–	55.5 µM
B7 (genB3 A452T/L401C/Q310N)	CN[C@@H]1[C@@H](O)[C@@H](O[C@@H]2[C@@H](O)[C@H](O[C@H]3O[C@H](CN)[C@@H](O)[C@H](OP(=O)(O)O)[C@H]3N)[C@@H](N)C[C@H]2N)OC[C@]1(C)O	–	30 °C	–	–	440 µM
B8 (AK1)	Nc1ccn(C2OC(COP(=O)(O)O)C(O)C2O)c(=O)n1	–	37 °C	–	ATP 1 mM	3000 µM
